Published values of several laboratories.
Lines come from different studies, so protocols differ. “And” joins repeats or separate records; there may be more than shown. ± marks the error that the study gave.
ACHE: Acetylcholinesterase (ACHE, Homo sapiens, UniProt P22303)
Sequence of UniProt P22303 (whole entry, looked up): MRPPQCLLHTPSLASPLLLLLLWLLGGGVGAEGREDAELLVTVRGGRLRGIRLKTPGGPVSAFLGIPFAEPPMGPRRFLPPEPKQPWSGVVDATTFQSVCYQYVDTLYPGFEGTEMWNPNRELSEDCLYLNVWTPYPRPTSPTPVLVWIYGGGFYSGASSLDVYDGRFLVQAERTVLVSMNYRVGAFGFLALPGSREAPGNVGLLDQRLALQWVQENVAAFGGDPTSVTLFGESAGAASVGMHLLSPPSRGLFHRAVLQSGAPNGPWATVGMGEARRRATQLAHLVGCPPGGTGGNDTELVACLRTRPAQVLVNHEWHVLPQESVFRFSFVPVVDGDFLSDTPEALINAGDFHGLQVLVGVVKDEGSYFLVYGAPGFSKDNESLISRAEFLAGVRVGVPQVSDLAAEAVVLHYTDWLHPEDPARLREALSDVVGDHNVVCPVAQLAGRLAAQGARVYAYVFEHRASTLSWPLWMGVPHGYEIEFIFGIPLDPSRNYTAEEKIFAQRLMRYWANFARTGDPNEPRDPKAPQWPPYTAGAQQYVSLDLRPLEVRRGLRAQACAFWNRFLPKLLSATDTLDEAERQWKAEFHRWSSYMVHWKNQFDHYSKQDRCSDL
PFF0160c E182D: Dihydroorotate dehydrogenase (quinone), mitochondrial (PFF0160c, Plasmodium falciparum, UniProt Q08210, E182D)
Sequence of UniProt P27361 (whole entry, looked up): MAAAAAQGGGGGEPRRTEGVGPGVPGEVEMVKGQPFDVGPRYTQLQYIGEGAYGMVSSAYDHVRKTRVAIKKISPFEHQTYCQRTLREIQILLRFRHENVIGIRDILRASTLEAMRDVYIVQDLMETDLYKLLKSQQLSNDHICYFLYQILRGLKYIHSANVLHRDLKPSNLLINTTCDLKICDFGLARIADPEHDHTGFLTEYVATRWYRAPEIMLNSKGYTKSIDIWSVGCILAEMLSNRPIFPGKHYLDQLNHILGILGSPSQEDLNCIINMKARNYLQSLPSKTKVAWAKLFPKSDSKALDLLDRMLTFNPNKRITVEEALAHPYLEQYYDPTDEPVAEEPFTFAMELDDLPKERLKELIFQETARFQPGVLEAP
Sequence of UniProt D0VWV4 (whole entry, looked up): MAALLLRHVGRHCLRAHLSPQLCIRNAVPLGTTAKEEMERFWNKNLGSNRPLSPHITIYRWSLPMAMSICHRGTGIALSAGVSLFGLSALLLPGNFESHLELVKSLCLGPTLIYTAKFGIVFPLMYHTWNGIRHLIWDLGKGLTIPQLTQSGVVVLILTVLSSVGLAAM
Sequence of UniProt Q007T0 (whole entry, looked up): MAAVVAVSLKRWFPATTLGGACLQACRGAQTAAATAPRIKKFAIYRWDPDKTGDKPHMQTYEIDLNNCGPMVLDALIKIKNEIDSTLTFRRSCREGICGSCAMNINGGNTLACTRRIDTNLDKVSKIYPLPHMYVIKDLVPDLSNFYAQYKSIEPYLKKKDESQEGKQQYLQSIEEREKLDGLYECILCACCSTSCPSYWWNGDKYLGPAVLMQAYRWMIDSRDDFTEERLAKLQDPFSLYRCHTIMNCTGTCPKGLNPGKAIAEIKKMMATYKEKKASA
Sequence of UniProt A5GZW8 (whole entry, looked up): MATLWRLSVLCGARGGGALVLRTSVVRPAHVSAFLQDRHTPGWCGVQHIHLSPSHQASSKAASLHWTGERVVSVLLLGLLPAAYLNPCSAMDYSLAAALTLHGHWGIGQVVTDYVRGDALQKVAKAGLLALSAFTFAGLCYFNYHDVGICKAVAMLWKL
Sequence of UniProt P51684 (whole entry, looked up): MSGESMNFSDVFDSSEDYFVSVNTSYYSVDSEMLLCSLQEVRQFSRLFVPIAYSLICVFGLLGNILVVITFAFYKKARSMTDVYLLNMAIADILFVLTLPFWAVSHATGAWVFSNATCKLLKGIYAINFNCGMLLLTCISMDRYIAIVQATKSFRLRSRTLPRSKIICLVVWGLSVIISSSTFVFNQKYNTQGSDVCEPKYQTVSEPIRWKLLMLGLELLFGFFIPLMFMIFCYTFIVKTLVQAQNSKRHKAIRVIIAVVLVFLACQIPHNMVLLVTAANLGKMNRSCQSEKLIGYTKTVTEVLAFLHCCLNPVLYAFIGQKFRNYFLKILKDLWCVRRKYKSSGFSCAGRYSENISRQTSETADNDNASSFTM
Sequence of UniProt P35869 (whole entry, looked up): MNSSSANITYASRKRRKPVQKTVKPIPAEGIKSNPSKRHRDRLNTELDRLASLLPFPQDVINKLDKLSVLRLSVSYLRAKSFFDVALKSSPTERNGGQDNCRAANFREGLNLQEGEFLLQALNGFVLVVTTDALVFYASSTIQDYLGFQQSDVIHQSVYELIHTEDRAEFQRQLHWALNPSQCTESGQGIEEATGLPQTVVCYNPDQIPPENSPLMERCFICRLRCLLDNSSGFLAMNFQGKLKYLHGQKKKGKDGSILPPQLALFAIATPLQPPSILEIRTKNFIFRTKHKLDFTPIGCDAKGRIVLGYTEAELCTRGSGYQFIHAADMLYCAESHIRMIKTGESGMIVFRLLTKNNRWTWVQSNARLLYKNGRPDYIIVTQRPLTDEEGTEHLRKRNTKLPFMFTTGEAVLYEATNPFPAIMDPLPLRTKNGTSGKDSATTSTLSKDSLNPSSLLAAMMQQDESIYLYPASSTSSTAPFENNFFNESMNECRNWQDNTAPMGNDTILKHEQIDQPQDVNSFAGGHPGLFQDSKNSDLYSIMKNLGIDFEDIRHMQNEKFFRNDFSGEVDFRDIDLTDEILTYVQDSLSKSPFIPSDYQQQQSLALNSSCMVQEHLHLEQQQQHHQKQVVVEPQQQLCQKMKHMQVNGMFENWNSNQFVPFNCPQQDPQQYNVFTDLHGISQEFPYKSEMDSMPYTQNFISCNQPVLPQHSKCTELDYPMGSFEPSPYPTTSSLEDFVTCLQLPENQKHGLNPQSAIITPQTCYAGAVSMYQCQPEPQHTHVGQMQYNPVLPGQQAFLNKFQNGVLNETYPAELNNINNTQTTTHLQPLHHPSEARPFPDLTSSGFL
Sequence of UniProt P15538 (whole entry, unmodified, looked up): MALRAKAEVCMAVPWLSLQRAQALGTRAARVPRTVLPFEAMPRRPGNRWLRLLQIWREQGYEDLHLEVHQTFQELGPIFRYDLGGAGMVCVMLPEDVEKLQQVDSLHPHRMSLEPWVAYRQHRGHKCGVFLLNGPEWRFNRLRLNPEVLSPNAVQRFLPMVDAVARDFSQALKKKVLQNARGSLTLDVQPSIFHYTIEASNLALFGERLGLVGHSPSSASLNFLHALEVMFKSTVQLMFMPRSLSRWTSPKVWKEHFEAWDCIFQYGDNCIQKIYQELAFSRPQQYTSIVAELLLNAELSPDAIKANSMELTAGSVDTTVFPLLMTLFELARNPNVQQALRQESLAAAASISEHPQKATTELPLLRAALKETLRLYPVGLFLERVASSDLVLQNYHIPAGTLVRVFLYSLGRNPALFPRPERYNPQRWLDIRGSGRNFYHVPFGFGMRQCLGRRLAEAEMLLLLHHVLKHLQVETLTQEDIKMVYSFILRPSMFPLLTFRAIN
Sequence of UniProt Q12933 (whole entry, looked up): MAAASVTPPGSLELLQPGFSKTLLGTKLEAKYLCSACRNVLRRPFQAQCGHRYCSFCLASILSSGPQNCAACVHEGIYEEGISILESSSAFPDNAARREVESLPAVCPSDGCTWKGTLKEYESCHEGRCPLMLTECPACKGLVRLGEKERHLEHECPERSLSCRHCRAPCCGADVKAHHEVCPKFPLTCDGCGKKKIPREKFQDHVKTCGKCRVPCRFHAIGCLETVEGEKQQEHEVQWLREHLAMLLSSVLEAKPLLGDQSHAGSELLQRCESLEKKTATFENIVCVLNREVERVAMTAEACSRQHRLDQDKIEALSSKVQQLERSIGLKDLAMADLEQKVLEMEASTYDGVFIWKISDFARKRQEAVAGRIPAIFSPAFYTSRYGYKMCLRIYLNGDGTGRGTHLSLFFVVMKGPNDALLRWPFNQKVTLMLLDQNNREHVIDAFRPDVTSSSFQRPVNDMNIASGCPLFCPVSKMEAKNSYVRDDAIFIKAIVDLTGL
Sequence of UniProt Q96RI1 (whole entry, looked up): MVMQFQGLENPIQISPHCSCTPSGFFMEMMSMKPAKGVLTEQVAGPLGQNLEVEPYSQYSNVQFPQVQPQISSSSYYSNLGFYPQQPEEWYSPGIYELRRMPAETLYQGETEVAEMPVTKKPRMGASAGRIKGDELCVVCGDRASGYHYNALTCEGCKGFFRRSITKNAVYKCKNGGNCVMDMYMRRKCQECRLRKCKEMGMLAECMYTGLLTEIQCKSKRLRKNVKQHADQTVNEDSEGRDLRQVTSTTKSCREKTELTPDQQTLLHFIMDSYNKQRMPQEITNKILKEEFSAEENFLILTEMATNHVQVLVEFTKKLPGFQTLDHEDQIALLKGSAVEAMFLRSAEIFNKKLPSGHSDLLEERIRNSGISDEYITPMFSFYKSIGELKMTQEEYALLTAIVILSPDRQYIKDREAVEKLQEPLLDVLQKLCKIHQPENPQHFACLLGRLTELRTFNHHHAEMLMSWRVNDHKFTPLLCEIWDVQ
Sequence of UniProt Q9NUJ1 (whole entry, looked up): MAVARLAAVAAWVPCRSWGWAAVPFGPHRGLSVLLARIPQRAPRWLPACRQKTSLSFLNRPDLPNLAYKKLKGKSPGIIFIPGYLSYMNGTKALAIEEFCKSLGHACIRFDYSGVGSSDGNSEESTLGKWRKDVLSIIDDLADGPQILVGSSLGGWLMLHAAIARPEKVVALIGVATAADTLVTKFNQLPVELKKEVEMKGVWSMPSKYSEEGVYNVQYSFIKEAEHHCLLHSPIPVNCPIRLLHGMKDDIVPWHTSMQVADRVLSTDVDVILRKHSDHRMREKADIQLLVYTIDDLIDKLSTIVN

COc1cc(N)c(Cl)cc1C(=O)NC1CN2CCC1CC2 (centres unmarked)
log2 fold change (Probable G-protein coupled receptor 45 (GPR45, Homo sapiens, UniProt Q9Y5Y3); β-arrestin recruitment, TANGO luminescence, measured: GPR45; concentration not given; relative to: basal luminescence): -0.347

O=C(O)C(F)(F)C(F)(F)C(F)(F)C(F)(F)C(F)(F)C(F)(F)C(F)(F)F
linear uptake duration (SLCO2B1 (Homo sapiens, UniProt O94956); substrate; CHO stably expressing; 10 µM): 1 min

COc1c(O)c(Br)c2c3c1-c1cc4c(cc1CC3N(C)CC2)OCO4 (centres unmarked)
apparent Kb (ADRA1A (Homo sapiens, UniProt P35348); calcium flux, antagonist, FLIPR; CHO-K1; with: norepinephrine): 0.068 ± 0.018 µM

COC(=O)[C@@]1(O)C[C@H]2O[C@]1(C)n1c3ccccc3c3c4c(c5c6ccccc6n2c5c31)C(=O)NC4
kinase activity (MAPK3 (Homo sapiens, UniProt P27361); ADP-Glo; 24.6 µM, with: MBP substrate): 101% and 125% and 99.8%

COc1ccc(N2C(=O)N(c3c(C)cccc3Cl)Cc3cnc(Nc4ccc(C5CCN(C)CC5)cc4OC)nc32)nc1
inhibition (EIF2AK4 (Homo sapiens, UniProt Q9P2K8); kinase activity; 0.5 µM): 0.375%

Oc1cc(Cl)cc(-c2cccc(Cl)c2)c1
IC25 (AHR (Homo sapiens, UniProt P35869); reporter gene, antagonist; AZ-AHR cells; 24 h, with: TCDD 4.5 nM): 9 µM

Cc1[nH]cnc1CN1CCc2c(c3ccccc3n2C)C1=O
activity class (ACHE; biochemical; concentration not given): inactive

Clc1cc2c(cc1Cl)Oc1cc(Cl)c(Cl)cc1O2
maximal fold induction (Uncharacterized protein (Takifugu rubripes, UniProt Q4JHL2); reporter gene, agonist, dual-luciferase; COS-7; 24 h; relative to: top over bottom): 2.59 ± 0.13

O=C(Nc1cccnn1)N1CCC(=Cc2cccc(Oc3ccc(C(F)(F)F)cn3)c2)CC1
inhibition (atrial natriuretic factor receptor; concentration not given): -4%

Nc1ncc(-c2nc(N3CCOCC3)nc(N3CCOCC3)n2)c(C(F)F)n1
remaining binding (KIT (Homo sapiens, UniProt P10721, D816H); KINOMEscan; 10 µM): 89%

[2H]c1c([2H])c([C@]2([2H])CCCN2C(=O)C(C)(C)Oc2ccc3cn[nH]c3c2)c([2H])c([2H])c1C([2H])([2H])[2H]
remaining binding (PRPF4B (Homo sapiens, UniProt Q13523); KINOMEscan; 1 µM; relative to: DMSO control): 71%

CC(C)[C@@H](O)CC[C@@H](C)[C@H]1CC[C@H]2[C@@H]3CC=C4C[C@@H](O)CC[C@]4(C)[C@H]3CC[C@]12C
current response (Glutamate NMDA receptor; GRIN1/GRIN2B (GRIN1/GRIN2B, Homo sapiens, UniProt Q05586+Q13224, D552A); positive allosteric modulator, two-electrode voltage clamp; Xenopus oocytes expressing GluN1-D552A; 10 µM, 0.02% cremophor, with: 100 µM glutamate and glycine; relative to: without compound): 144 ± 9.2%

C[C@H]1CN(c2n[nH]c3nc(N[C@H]4CC[C@H](NS(=O)(=O)CCC(F)(F)F)CC4)ncc23)CCO1
remaining binding (TNF receptor-associated factor 2 (Homo sapiens, UniProt Q12933); Kinobeads competition, measured: TRAF2; 20 µM, unit not given; relative to: vehicle): 1.08

C=C(CN(C(=O)c1c(C(F)F)nn(C)c1F)C1CC1)c1ccc(Cl)cc1Cl
reaction velocity (SDHD/SDHC/SDHB (Sus scrofa, UniProt A5GZW8+D0VWV4+Q007T0); enzyme activity, inhibitor, DCIP reduction; pig; 0.1 µM, with: DCIP 120 µM): 0.0211 µM/s and 0.0206 µM/s

Oc1ccc2ccc3cccc4ccc1c2c34
fold change (Aryl hydrocarbon receptor (Danio rerio, UniProt Q9YGV3); reporter gene, agonist, luciferase reporter; ZF-4; 13.72 µM; relative to: vehicle control): 1.21

CC(=O)C1C(=O)c2ccccc2C1=O
activity (Bile acid receptor (NR1H4, Homo sapiens, UniProt Q96RI1); cells; concentration not given): inactive

CC[N+](CC)(CC)CCOC(=O)C(C1CCCC1)C1CCCC1
activity class (ACHE; biochemical; concentration not given): inactive

CC(C)(C)C(O)C(Oc1ccc(-c2ccccc2)cc1)n1cncn1 (centres unmarked)
koff (Glideosome-associated protein 50 (GAP50, Plasmodium falciparum, UniProt Q8I2X3); binding, surface plasmon resonance; 1:1 binding model): 0.926 s⁻¹

CC(c1ccc(Cl)c(Cl)c1)c1nn2c(-c3ccccc3F)nnc2s1 (centres unmarked)
IC50 ratio (PFF0160c E182D; enzyme activity, DCIP colorimetric; relative to: E182D mutant over wild type): 2

O=C(c1ccc(Cl)cc1)N1CCN2C(=O)N(OC(=O)N3CCOc4ccccc43)C(=O)C2C1 (centres unmarked)
median ratio (Palmitoyl-protein thioesterase ABHD10, mitochondrial (Homo sapiens, UniProt Q9NUJ1); enzyme activity, inhibitor, MS-based ABPP; SW-620 conditioned medium; 10 µM, 1 h, 37 °C; relative to: compound over DMSO, lower = stronger inhibition): 0.99

CC(NC(=O)c1ccc(-n2cnc3ccccc32)cc1)c1ccc(S(N)(=O)=O)cc1 (centres unmarked)
IC50 ratio (PFF0160c E182D; enzyme activity, DCIP colorimetric; relative to: E182D mutant over wild type): 0.5

Nc1nc2c(ncn2[C@@H]2O[C@@H]3COP(=O)(O)O[C@H]4[C@@H](O)[C@H](n5cnc6c(=O)[nH]c(N)nc65)O[C@@H]4COP(=O)(O)O[C@H]3[C@H]2O)c(=O)[nH]1
ΔS (Cell cycle histidine kinase CckA, R374A; cytoplasmic region (Caulobacter vibrioides, UniProt Q9X688, R374A); binding, ITC; with: ADP 5 mM): 24.4 cal/mol/K

COc1ccccc1Cn1ccnc1SCC(=O)Nc1cc(C(F)(F)F)ccc1Cl
IC50 ratio (PFF0160c E182D; enzyme activity, DCIP colorimetric; relative to: E182D mutant over wild type): 6.6

C[C@]12CC[C@H]3[C@@H](CCC4=CC(=O)CC[C@@]43C)[C@@H]1CC[C@@H]2C(=O)CO
11β-hydroxylation product formation rate (CYP11B1 (Homo sapiens, UniProt P15538, V320A); substrate; 100 µM, 37 °C, phospholipid vesicles): 35.9 ± 1.6 min⁻¹

CCC(c1ccccc1)c1nn2c(-c3cccs3)nnc2s1 (centres unmarked)
IC50 ratio (PFF0160c E182D; enzyme activity, DCIP colorimetric; relative to: E182D mutant over wild type): 1.1

CN1CCN(c2cc(-c3ccncc3)c(-c3ccc4ccccc4c3)nn2)CC1
activation (CCR6 (Homo sapiens, UniProt P51684); agonist, FLIPR; 12.5 µM): 3%
